# Measurements gathered from unrelated publications.
# Compare with care: the assays were run in different laboratories. Values joined by “and” are separate records of one study, mostly repeats; a detail may differ. Numbers after ± are the reported error.
SMILES,cell line,assay,test system,conditions,scale,quantity,result
Nc1cccc2c1C(=O)N(C1CCC(=O)NC1=O)C2=O (stereo not drawn),RPMI-8226,"flow cytometry, refers to: CD5",,concentration not given,reference: comparator compound alone,surface marker level,56.1%
O=C(C[C@@H](C(F)F)n1ccc(F)n1)N1CCC(O)(Cn2cnc3c(cnn3-c3ccc(F)cc3)c2=O)CC1,CHP-212 parental (wild-type USP7),annexin V-PI flow cytometry,,"0.3 µM, 48 h",,viable cells (annexin V-/PI-),65.2% and 64.8% and 70.2%
Cn1c(Nc2nc3ccc(C(F)(F)F)cc3s2)nc2cc(C(=O)NCCOCCO)ccc21,SH-SY5Y,"RNA-seq, refers to: FBLIM1 mRNA",,"5 µM, 5 h",reference: untreated cells,fold change,1.73
COc1cc(C[C@H]2COC(=O)[C@@H]2Cc2ccc(O)c(OC)c2)ccc1O,neuroblastoma M2 (−),western blot,,IC50,reference: untreated,PARP cleavage,increased
C=CC1=C(C)c2cc3[n-]c(cc4nc(cc5[n-]c(cc1n2)c(C)c5C=C)C(C)=C4CCC(=O)O)c(CCC(=O)O)c3C.[Zn+2],SH-SY5Y,"RNA-seq, refers to: INSYN2B mRNA",,"5 µM, 5 h",reference: untreated cells,fold change,4.05
CCc1ccc(NC(=O)Nc2c[nH]c3ccccc23)cc1,RAW-ISG,"RT-qPCR, refers to: IFNB1",,"10 µM, unit not given, added: poly(I:C)",reference: relative,mRNA level,1.13
Cc1cc(NS(=O)(=O)c2ccc(NC(=O)/C(C#N)=C/c3ccc(N4CCCCC4)cc3)cc2)no1,HCT-116,propidium iodide flow cytometry,,"IC50, 48 h",,G2/M phase cells,3.4%
S=C(Nc1ccccc1)c1ccccn1,LDR,"silenced CMV-GFP reporter derepression, qHTS",,,,efficacy,84%
CC[C@H](C)[C@H](NC(=O)[C@H](CCCCN)NC(=O)[C@@H](NC(=O)[C@H](CCCNC(=N)N)NC(=O)[C@@H](NC(=O)[C@@H](CCCNC(=N)N)NC(=O)[C@@H](CCCNC(=N)N)NC(=O)[C@@H](CCCNC(=N)N)NC(=O)[C@@H](CCCNC(=N)N)NC(=O)[C@@H](CCCNC(=N)N)NC(=O)[C@H](N)CCCNC(=N)N)[C@@H](C)O)[C@@H](C)O)C(=O)N[C@@H](CC(=O)O)C(=O)N[C@@H](Cc1c[nH]c2ccccc12)C(=O)NC(C)(C)C(=O)N[C@@H](CCCCN)C(=O)N[C@H](C(=O)N[C@@H](CC(C)C)C(=O)NC(C)(C)C(=O)N[C@@H](CCCCN)C(=O)NCCCCCC(=O)NCCCC[C@H](NC(=O)CCCCCNC(=O)[C@H](CCCCN)NC(=O)C(C)(C)NC(=O)[C@H](CC(C)C)NC(=O)[C@@H](NC(=O)[C@H](CCCCN)NC(=O)C(C)(C)NC(=O)[C@H](Cc1c[nH]c2ccccc12)NC(=O)[C@H](CC(=O)O)NC(=O)[C@@H](NC(=O)[C@H](CCCCN)NC(=O)[C@@H](NC(=O)[C@H](CCCNC(=N)N)NC(=O)[C@@H](NC(=O)[C@@H](CCCNC(=N)N)NC(=O)[C@@H](CCCNC(=N)N)NC(=O)[C@@H](CCCNC(=N)N)NC(=O)[C@@H](CCCNC(=N)N)NC(=O)[C@@H](CCCNC(=N)N)NC(=O)[C@H](N)CCCNC(=N)N)[C@@H](C)O)[C@@H](C)O)[C@@H](C)CC)[C@@H](C)CC)C(N)=O)[C@@H](C)CC,SK-MEL-5,microscopy,,concentration not given,,time to apoptosis signs (blebbing),≤ 2 h
CNc1ncc2cc(-c3cc(NC(=O)NCCC(C)(C)C)c(F)cc3C)c(C)nc2n1,SK-MEL-239 C4 (p61 BRAF V600E),"ERK phosphorylation, Western blot",,1 h,,IC75,0.067 µM
COc1ccc(Nc2nc3c(S(=O)(=O)c4ccccc4)nnn3c3ccc(Cl)cc23)cc1,LDR,"silenced CMV-GFP reporter derepression, qHTS",,,,efficacy,40%
CN1C(=O)C(=O)c2cc3c(c4c2c1cc1ccccc14)OCO3,S102,"cytotoxicity, MTT",,"50 µg/mL, 48 h",,inhibition,< 50%
Cc1cccc(-c2[nH]c(CNc3ccccc3F)nc2-c2ccc3ncnn3c2)n1,MM1.S pomalidomide-resistant,XTT,,1.25 µM,reference: untreated,viability,59%
CC(C)n1cnc2c(NCc3ccccc3O)nc(NCCCO)nc21,HeLa,"splicing reporter, refers to: GLA",,"10 µM, 18 h",,GFP/RFP ratio,0.15
COc1cccc2c1C(=O)c1c(O)c3c(c(O)c1C2=O)C[C@@](O)(C(=O)CO)C[C@@H]3O[C@H]1C[C@H](N)[C@H](O)[C@H](C)O1,Vero,MTT,,"100 µM, 24 h",,growth inhibition,10.3 ± 0.89%
NS(=O)(=O)OC[C@H]1C[C@@H](Nc2ccnc3cc(-c4cccc(SC(F)(F)F)c4)nn23)[C@H](O)[C@@H]1O,HiBiT-BRD4 LgBiT cells,,,"0.1 µM, 24 h, no PROTAC",,decrease in BRD4 level,50%
COc1cnc2cccc(N3CCc4c(cc(Cn5ccnc5C)cc4-c4cn(C)nc4C(F)(F)F)C3=O)c2c1,SHP77,"cell growth, inhibitor",,120 h,,EC50,> 30 µM
CCCCS(=N)(=O)CCC(N)C(=O)O (stereo not drawn),OVCAR-5,"LC-ESI-MS/MS, refers to: glutathione",,"40 µM, 12 h",,cellular GSH concentration,31.7 ± 3.3 µM
COc1cc2ncnc(Nc3ccc(Oc4ccccc4)c(C)c3C)c2cc1OC.Cl,MeWo (NF1),"cell viability, resazurin",,"1 µM, 72 h, added: trametinib",,average fractional effect,10%
Cn1cc(-c2ccc(-c3cncc(Cl)c3N3CCC4(CCNC4=O)CC3)cc2)cn1,COLO 205,"gene expression, microarray, refers to: ITGB1BP2 mRNA",,"concentration not given, 2 h",reference: untreated cells,log2 fold change,-2.42
CCCCCCCCCCCCCCC/C(NCc1ccccc1)=C1/C(=O)OC(CO)C1=O (stereo not drawn),G2-synchronized tsFT210 cells,flow cytometry,,"50 µM, 4 h, 32 °C, release from G2 arrest",,G1 phase cells,31.4%
Oc1[nH]c2ccccc2c1N=NC(=S)N1CCOCC1,LDR,"silenced CMV-GFP reporter derepression, qHTS",,,,efficacy,141%
O=C(/C=C/C=C/C=C/C1CCCCC1)NC1=C[C@@](O)(/C=C/C=C/C=C/C(=O)NC2=C(O)CCC2=O)[C@@H]2O[C@@H]2C1=O,NCI-H1838,"cell growth, CellTiter-Glo",,78 h,,GI50,> 30 µM
CC#CC(=O)N1CC[C@@H](n2cc(-c3ccc(Oc4c(F)cccc4F)cc3)c3c(N)n[nH]c(=O)c32)C1,RL,cell growth,,72 h,,GI50,8.25 µM
CCc1cnc(N2CCC(c3nc(COc4ccc(-n5cnnn5)cc4)cs3)CC2)nc1,HEK-293T,"RNA-seq GSEA, refers to: HALLMARK_INTERFERON_GAMMA_RESPONSE",,concentration not given,direction not given,normalized enrichment score,-1.32
CCn1cc(-c2cc(Cn3ccnc3)cc3c2CCN([C@H](c2cc(OC)ccn2)C2CC2)C3=O)c(C(F)(F)F)n1,HARA,cell growth,,120 h,,EC50,11.7 µM
O=C(O)CCCCCN1C(=O)/C(=C\c2ccc(-c3ccc(Cl)cc3)o2)SC1=S,LDR,"silenced CMV-GFP reporter derepression, qHTS",,,,efficacy,113%
CC/C(=N\NC(=O)NCc1cccc(O)c1)c1ccc(O)c(C)c1O,SK-OV-3,"gene expression, microarray, refers to: PSG1",,"10 µM, 24 h",reference: DMSO,log ratio,3.86
CCNc1nc(Nc2ccc(F)c(Cl)c2)c2ccccc2n1,Vero,MTT,,31.25 µg/mL,,cytotoxicity,0%
CC(=O)c1nn(-c2ccc(Cl)cc2)/c(=N/N=C(\C)c2ccc(NC(=O)c3ccc(C)cc3)cc2)s1,HepG2,,,5 µM,,viability,3.13%
CN(Cc1cnc2nc(N)nc(N)c2n1)c1ccc(C(=O)N[C@@H](CCC(=O)O)C(=O)O)cc1,cells transfected with H247C mutant,,,"0.5 µM, 2 min, pH 5.5, 37 °C",,uptake,12.4%
O=S(=O)(NNc1nnc(Cl)c2ccccc12)c1ccc(F)cc1,Vero,MTT,,250 µg/mL,,cytotoxicity,75.1%
COc1ccc(NC(=S)N/N=C/c2cccc3cc4ccccc4nc23)cc1,HeLa,annexin V/PI flow cytometry,,"concentration not given, 48 h, added: N-acetylcysteine",,late apoptotic cells,6.12 ± 0.72%
Cn1cc(Nc2nccc(-c3ccc4c(c3)CN(C3COC3)CC[C@H]4NC(=O)c3cn(C(C)(C)C)nn3)n2)cn1,human B cells,,,"100 nM, 64 h, stimulation-downregulated genes, added: CD40L, anti-IgM, IL-4",,number of unchanged genes,1840
CC1(C)CCC(CN2CCN(c3ccc(C(=O)NS(=O)(=O)c4ccc(NCC5CCOCC5)c([N+](=O)[O-])c4)c(Oc4cnc5[nH]ccc5c4)c3)CC2)=C(c2ccc(Cl)cc2)C1,mouse BMDM,CellTiter-Glo,,concentration not given,,viability,9.79%
CN1CCN(c2ccc3[nH]c(-c4ccc5[nH]c(-c6ccc(C(F)(F)F)cc6)nc5c4)nc3c2)CC1,TK-10,SRB,,"10 µM, 48 h",,growth percent,101%
CCn1cc(-c2cc(Cn3ccoc3=N)cc3c2CCN([C@@H](C)c2cc(OC)ccn2)C3=O)c(C(F)(F)F)n1,LMSU,cell growth,,120 h,,EC50,0.529 µM
Cc1nc(N(Cc2ccccc2)c2ccc3c(c2)/C(=C/c2ccccc2)C(=O)N3Cc2ccccc2)c2ccccc2n1 (mixture of isomers),LLC,annexin V-FITC/PI,,concentration not given,,apoptotic cells,78.4%
Cn1cnc2c1c(=O)n(CC(=O)Nc1c(Cl)cccc1Cl)c(=O)n2C,Vero,MTT,,62.5 µg/mL,,cytotoxicity,0.214%
CSc1cc(Oc2ccnc3[nH]c(=O)cnc23)ccc1NC(=O)Nc1cc(C(C)(C)C)nn1-c1ccccc1,patient-derived cell line,reverse phase protein array,human,"1 µM, 4 h",reference: DMSO,phosphorylated STAT5 level,0.48
CCCCCCCCCCCCCCCC(NCc1cccc(C)c1)=C1C(=O)OC(CO)C1=O (stereo not drawn),G2-synchronized tsFT210 cells,flow cytometry,,"5 µM, 4 h, 32 °C, release from G2 arrest",,G1 phase cells,63.5%
Cc1nn(-c2nc3c(F)cc(F)cc3s2)c(O)c1C(c1ccc(C(F)(F)F)cc1)c1c(C)nn(-c2nc3c(F)cc(F)cc3s2)c1O,RAW-ISG,western blot,,"20 µM, added: HT-DNA",reference: DMSO,phospho-IRF3 to IRF3 ratio,0.339 and 0.179 and 0.21
COc1cc2ncnc(Nc3ccc(Oc4ccccc4)cc3C)c2cc1OC.O=C(O)C(F)(F)F,MeWo (NF1),"cell viability, resazurin",,"1 µM, 72 h, added: trametinib 0 nM",,average fractional effect,14%
Cc1cc(Nc2ncc(Cl)c(Nc3ccccc3S(=O)(=O)C(C)C)n2)c(OC(C)C)cc1C1CCNCC1,CLB-BAR,"phosphoproteomics LC-MS/MS, refers to: FNBP1L phosphorylation",,"200 nM, 60 min",reference: untreated,log2 fold change,-1.6
O=P1(C2CCCCC2)CCCCC1,HaCaT,Annexin V-FITC/PI flow cytometry,,"IC50, 72 h",,late apoptotic cells,0.95%
COc1ccc2c(c1)c1ccc3c(c1n2C)C(=O)C=CC3=O,LDR,"silenced CMV-GFP reporter derepression, qHTS",,,,efficacy,41%
COc1ccccc1/C=C1\SC(N2CCCCC2)=NC1=O,NG108-cl,"clomeleon fluorescence, refers to: intracellular chloride reduction",,5 h,,EC50,inactive
O=c1cc(-c2ccc(O)c(O)c2)oc2cc(O)cc(O)c12,Caco-2,"Western blot, refers to: MRP2",,concentration not given,reference: untreated,protein level,decreased
